Results gathered from unrelated publications.
Compare with care: the assays were run in different laboratories. ± marks the error that the study gave.
F fusion protein: Fusion glycoprotein F0, fusion protein (F, Parainfluenza virus 5, UniProt P04849)
gag-pol integrase: Gag-Pol polyprotein, integrase (gag-pol, Human immunodeficiency virus type 1 group M subtype B, UniProt P04585)
Chain of UniProt Q9P0X4 (whole entry, looked up): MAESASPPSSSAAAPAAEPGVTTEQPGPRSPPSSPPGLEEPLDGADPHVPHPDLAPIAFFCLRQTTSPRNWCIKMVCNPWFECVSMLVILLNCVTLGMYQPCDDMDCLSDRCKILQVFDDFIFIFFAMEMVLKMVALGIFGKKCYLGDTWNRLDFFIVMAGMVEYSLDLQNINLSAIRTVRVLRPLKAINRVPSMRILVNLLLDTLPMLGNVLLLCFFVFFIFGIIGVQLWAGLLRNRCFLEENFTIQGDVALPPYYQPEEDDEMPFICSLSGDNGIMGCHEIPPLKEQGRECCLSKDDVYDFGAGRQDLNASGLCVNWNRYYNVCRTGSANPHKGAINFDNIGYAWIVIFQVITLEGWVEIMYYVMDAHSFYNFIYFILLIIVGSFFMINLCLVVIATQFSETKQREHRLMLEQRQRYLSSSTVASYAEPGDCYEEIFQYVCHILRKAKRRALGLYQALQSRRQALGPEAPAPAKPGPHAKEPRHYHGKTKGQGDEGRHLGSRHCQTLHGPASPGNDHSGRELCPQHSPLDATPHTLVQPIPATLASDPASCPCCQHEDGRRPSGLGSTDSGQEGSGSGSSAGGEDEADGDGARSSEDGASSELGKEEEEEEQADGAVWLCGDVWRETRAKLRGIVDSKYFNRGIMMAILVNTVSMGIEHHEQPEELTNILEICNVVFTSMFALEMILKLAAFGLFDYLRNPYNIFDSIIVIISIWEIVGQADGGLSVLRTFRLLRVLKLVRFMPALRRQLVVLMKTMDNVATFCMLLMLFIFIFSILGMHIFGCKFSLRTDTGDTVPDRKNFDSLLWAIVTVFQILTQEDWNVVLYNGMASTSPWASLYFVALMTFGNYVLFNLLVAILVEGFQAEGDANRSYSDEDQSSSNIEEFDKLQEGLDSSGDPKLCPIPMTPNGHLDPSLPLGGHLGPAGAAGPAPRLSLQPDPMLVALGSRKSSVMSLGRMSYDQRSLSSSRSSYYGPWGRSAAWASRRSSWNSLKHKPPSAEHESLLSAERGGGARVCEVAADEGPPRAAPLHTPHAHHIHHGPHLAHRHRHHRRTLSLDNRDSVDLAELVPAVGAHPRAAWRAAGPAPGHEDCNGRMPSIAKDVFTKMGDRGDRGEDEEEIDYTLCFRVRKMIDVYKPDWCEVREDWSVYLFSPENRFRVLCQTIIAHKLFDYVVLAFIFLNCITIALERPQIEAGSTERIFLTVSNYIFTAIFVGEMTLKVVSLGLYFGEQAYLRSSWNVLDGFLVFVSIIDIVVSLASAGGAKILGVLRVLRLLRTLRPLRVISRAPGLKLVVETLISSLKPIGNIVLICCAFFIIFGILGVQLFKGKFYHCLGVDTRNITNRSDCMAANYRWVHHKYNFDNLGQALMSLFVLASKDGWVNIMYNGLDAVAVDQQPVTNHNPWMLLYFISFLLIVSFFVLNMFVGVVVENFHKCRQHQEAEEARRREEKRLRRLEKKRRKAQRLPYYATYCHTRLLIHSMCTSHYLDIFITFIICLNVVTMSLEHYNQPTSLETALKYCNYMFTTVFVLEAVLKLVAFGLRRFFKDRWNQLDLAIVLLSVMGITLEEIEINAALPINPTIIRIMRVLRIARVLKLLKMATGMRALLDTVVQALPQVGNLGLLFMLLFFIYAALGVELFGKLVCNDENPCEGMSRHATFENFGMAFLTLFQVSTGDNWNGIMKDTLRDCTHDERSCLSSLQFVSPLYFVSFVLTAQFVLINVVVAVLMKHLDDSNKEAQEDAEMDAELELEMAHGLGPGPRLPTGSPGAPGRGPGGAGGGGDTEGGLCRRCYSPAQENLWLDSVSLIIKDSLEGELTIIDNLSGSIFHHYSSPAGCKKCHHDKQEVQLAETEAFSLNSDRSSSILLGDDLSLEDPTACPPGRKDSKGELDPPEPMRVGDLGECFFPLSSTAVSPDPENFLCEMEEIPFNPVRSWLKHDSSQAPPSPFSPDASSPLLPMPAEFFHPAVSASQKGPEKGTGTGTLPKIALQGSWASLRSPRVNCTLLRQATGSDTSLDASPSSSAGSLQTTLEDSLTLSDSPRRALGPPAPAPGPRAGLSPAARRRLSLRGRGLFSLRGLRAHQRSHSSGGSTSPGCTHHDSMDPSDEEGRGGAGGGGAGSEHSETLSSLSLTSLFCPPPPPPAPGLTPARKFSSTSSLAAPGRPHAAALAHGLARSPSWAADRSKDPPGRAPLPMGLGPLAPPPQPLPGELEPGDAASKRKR
Chain of UniProt P32300 (whole entry, looked up): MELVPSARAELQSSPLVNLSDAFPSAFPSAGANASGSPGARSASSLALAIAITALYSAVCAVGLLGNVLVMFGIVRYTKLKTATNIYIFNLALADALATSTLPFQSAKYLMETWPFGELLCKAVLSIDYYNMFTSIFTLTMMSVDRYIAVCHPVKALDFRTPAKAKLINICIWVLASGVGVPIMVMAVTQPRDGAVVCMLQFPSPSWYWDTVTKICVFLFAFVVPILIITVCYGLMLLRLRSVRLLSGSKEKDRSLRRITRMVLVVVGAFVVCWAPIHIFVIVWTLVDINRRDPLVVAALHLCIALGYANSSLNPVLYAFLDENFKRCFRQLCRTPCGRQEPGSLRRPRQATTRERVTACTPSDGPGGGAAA

SMILES | target | assay | test system | setting | IC50
CC[C@H](C)[C@H](NC(=O)[C@H](C)NC(=O)[C@H](CO)NC(=O)[C@H](CC(C)C)NC(=O)[C@H](Cc1ccc(O)cc1)NC(=O)[C@@H](NC(=O)[C@H](CC(=O)O)NC(=O)[C@H](CO)NC(=O)[C@H](CCC(N)=O)NC(=O)[C@H](C)NC(=O)[C@H](CC(C)C)NC(=O)[C@H](Cc1c[nH]cn1)NC(=O)[C@H](CCC(N)=O)NC(=O)[C@H](CC(C)C)NC(=O)[C@H](C)NC(=O)[C@H](CC(=O)O)NC(=O)[C@H](CO)NC(=O)[C@H](CC(C)C)NC(=O)[C@H](CO)NC(=O)[C@H](CCCCN)NC(=O)[C@H](CC(N)=O)NC(=O)[C@@H](NC(=O)[C@H](C)NC(=O)[C@H](C)NC(=O)[C@H](CC(C)C)NC(=O)[C@H](CC(N)=O)NC(=O)[C@H](CCC(N)=O)NC(=O)[C@H](CO)NC(=O)[C@H](C)NC(=O)[C@H](CC(=O)O)NC(=O)[C@H](CC(C)C)NC(=O)[C@@H]1CCCN1C(=O)[C@H](CC(=O)O)NC(=O)[C@@H](NC(=O)[C@H](CO)NC(=O)[C@H](CC(C)C)NC(=O)[C@@H](NC(=O)[C@H](CCC(N)=O)NC(=O)[C@H](CO)NC(=O)[C@H](CO)NC(=O)[C@H](CCC(=O)O)NC(=O)[C@H](CC(C)C)NC(=O)[C@@H](N)CCCCN)[C@@H](C)CC)[C@@H](C)CC)C(C)C)[C@@H](C)O)C(=O)O | F fusion protein | cell-cell fusion, inhibitor, luciferase reporter | Vero plus BSR-T7 cells | 6 h, 37 °C, with: SV5 F and HN | 115 ± 7 nM
C[C@H](NC(=O)[C@H](C)NC(=O)[C@@H]1CCCN1C(=O)[C@@H](N)Cc1ccc(O)cc1)C(=O)N[C@@H](CO)C(=O)N[C@@H](Cc1ccc(O)cc1)C(=O)N[C@@H](CCCNC(=N)N)C(=O)O | Protein Rev (Human immunodeficiency virus type 1 group M subtype B, UniProt P04618) | Rev-RRE binding, inhibitor, gel shift | HIV |  | 62 nM
CC[C@H](C)[C@H](N)C(=O)N[C@@H](CC(N)=O)C(=O)N[C@@H](CC(N)=O)C(=O)N[C@H](C(=O)N1C[C@@H](n2cc([C]34[CH]5[CH]6[CH]7[CH]3[Fe]6754389%10[CH]4[CH]3[CH]8[CH]9[CH]4%10)nn2)C[C@H]1C(=O)N[C@@H](Cc1ccc(O)cc1)C(N)=O)[C@@H](C)CC (some centres unmarked) | Envelope glycoprotein gp160, gp120 (env, Human immunodeficiency virus type 1 group M subtype B, UniProt P35961, M413A) | binding to soluble CD4, inhibitor, competition SPR |  | gp120 M426A mutant | 5100 ± 200 nM
C=CCCC[C@H](NC(=O)[C@H](C)NC(=O)[C@H](CCC(=O)O)NC(C)=O)C(=O)N[C@H](C(=O)N[C@@H](CCCNC(=N)N)C(=O)N[C@H](C(=O)N[C@@H](CCCC=C)C(=O)N[C@@H](CCC(N)=O)C(=O)N[C@@H](CCC(N)=O)C(=O)N[C@@H](CC(C)C)C(=O)N[C@@H](CC(C)C)C(=O)N[C@@H](Cc1ccccc1)C(=O)N[C@H](C(=O)N[C@@H](Cc1c[nH]cn1)C(=O)N[C@@H](Cc1ccccc1)C(=O)N[C@@H](CCCNC(=N)N)C(=O)N[C@H](C(=O)NCC(N)=O)[C@@H](C)CC)[C@@H](C)CC)[C@@H](C)CC)[C@@H](C)CC | gag-pol integrase | 3′-end processing, inhibitor | HIV-1 |  | 9600 ± 600 nM
O=C1c2c(ccc(O)c2O)CN1Cc1cccc(Cl)c1F | Gag-Pol polyprotein, integrase (gag-pol, Human immunodeficiency virus 1, UniProt P12497, Y1290R) | enzyme activity, inhibitor |  |  | 6600 ± 300 nM
C=CCCC[C@](C)(NC(=O)CNC(=O)[C@H](C)NC(=O)[C@H](CC(C)C)NC(=O)[C@](C)(CCCC=C)NC(=O)[C@H](CC(C)C)NC(=O)[C@H](CC(C)C)NC(=O)[C@H](Cc1ccccc1)NC(=O)[C@H](Cc1ccc(O)cc1)NC(=O)[C@H](C)NC(=O)[C@@H](N)[C@@H](C)O)C(=O)N[C@@H](Cc1c[nH]c2ccccc12)C(N)=O | gag-pol integrase | integrase 3'-processing, inhibitor |  |  | > 100000 nM
CC[C@H](C)[C@H](NC(=O)[C@H](C)NC(=O)[C@H](CO)NC(=O)[C@H](CC(C)C)NC(=O)[C@H](Cc1ccc(O)cc1)NC(=O)[C@@H](NC(=O)[C@H](CC(=O)O)NC(=O)[C@H](CO)NC(=O)[C@H](CCC(N)=O)NC(=O)[C@H](C)NC(=O)[C@H](CC(C)C)NC(=O)[C@H](Cc1c[nH]cn1)NC(=O)[C@H](CCC(N)=O)NC(=O)[C@H](CC(C)C)NC(=O)[C@H](C)NC(=O)[C@H](CC(=O)O)NC(=O)[C@H](CO)NC(=O)[C@H](CC(C)C)NC(=O)[C@H](CO)NC(=O)[C@H](CCCCN)NC(=O)[C@H](CC(N)=O)NC(=O)[C@@H](NC(=O)[C@H](C)NC(=O)[C@H](C)NC(=O)[C@H](CC(C)C)NC(=O)[C@H](CC(N)=O)NC(=O)[C@H](CCC(N)=O)NC(=O)[C@H](CO)NC(=O)[C@@H](NC(=O)[C@H](CC(=O)O)NC(=O)[C@H](CC(C)C)NC(=O)[C@@H]1CCCN1C(=O)[C@H](CC(=O)O)NC(=O)[C@@H](NC(=O)[C@H](CO)NC(=O)[C@H](CC(C)C)NC(=O)[C@@H](NC(=O)[C@H](CCC(N)=O)NC(=O)[C@H](CO)NC(=O)[C@H](CO)NC(=O)[C@H](CCC(=O)O)NC(=O)[C@H](CC(C)C)NC(=O)[C@@H](N)CCCCN)[C@@H](C)CC)[C@@H](C)CC)[C@@H](C)CC)C(C)C)[C@@H](C)O)C(=O)O | F fusion protein | cell-cell fusion, inhibitor, luciferase reporter | Vero plus BSR-T7 cells | 6 h, 37 °C, with: SV5 F and HN | 38 ± 4 nM
CC(C)C[C@@H]1NC(=O)[C@H](Cc2c[nH]c3ccccc23)NC(=O)[C@H](Cc2ccc(O)cc2)NC(=O)[C@H](CCCNC(=N)N)NC(=O)[C@@H](NC(=O)[C@@H](N)CCC(=O)O)CSSC[C@@H]2NC(=O)[C@@H]3CSSC[C@@H](C(=O)N[C@H](C(=O)N[C@@H](Cc4c[nH]c5ccccc45)C(=O)N[C@@H](CC(=O)O)C(=O)NCC(=O)N[C@H](C(=O)N[C@@H](Cc4ccccc4)C(=O)N[C@@H](CO)C(=O)O)[C@@H](C)O)C(C)C)NC(=O)[C@H](Cc4c[nH]c5ccccc45)NC(=O)CNC(=O)[C@H](Cc4c[nH]cn4)NC(=O)[C@H](CCCNC(=N)N)NC(=O)[C@H](CCCNC(=N)N)NC(=O)[C@H](CO)NC(=O)[C@H](CSSC[C@H](NC(=O)CNC(=O)CNC1=O)C(=O)N[C@@H](CO)C(=O)N[C@@H](C)C(=O)NCC(=O)N[C@@H](CCC(N)=O)C(=O)N[C@@H]([C@@H](C)O)C(=O)N3)NC(=O)[C@H](C(C)C)NC(=O)[C@H](CC(C)C)NC(=O)[C@H](Cc1c[nH]cn1)NC(=O)[C@H](CCCCN)NC2=O | CACNA1I (Homo sapiens, UniProt Q9P0X4) | inhibitor, cell-based |  |  | 26 nM
CC(=O)NCCC[C@@H](NC(=O)[C@@H](N)Cc1ccc(O)cc1)C(=O)N[C@@H](Cc1ccccc1)C(=O)NCC(=O)N[C@@H](Cc1ccc(O)cc1)C(=O)N1CCC[C@H]1C(=O)N[C@@H](CO)C(N)=O | Oprd1 (Mus musculus, UniProt P32300) | radioligand binding | CHO cells | with: 0.15 nM [3H]DPDPE | 272 ± 23 nM
CC[C@H](C)[C@H](NC(=O)[C@H](C)NC(=O)[C@H](CO)NC(=O)[C@H](CC(C)C)NC(=O)[C@H](Cc1ccc(O)cc1)NC(=O)[C@@H](NC(=O)[C@H](CC(=O)O)NC(=O)[C@H](CO)NC(=O)[C@H](CCC(N)=O)NC(=O)[C@H](C)NC(=O)[C@H](CC(C)C)NC(=O)[C@H](Cc1c[nH]cn1)NC(=O)[C@H](CCC(N)=O)NC(=O)[C@H](CC(C)C)NC(=O)[C@H](C)NC(=O)[C@H](CC(=O)O)NC(=O)[C@H](CO)NC(=O)[C@H](CC(C)C)NC(=O)[C@H](CO)NC(=O)[C@H](CCCCN)NC(=O)[C@H](CC(N)=O)NC(=O)[C@@H](NC(=O)[C@H](C)NC(=O)[C@H](C)NC(=O)[C@H](CC(C)C)NC(=O)[C@H](CC(N)=O)NC(=O)[C@H](CCC(N)=O)NC(=O)[C@H](CO)NC(=O)CNC(=O)[C@H](CC(=O)O)NC(=O)[C@H](CC(C)C)NC(=O)[C@@H]1CCCN1C(=O)[C@H](CC(=O)O)NC(=O)[C@@H](NC(=O)[C@H](CO)NC(=O)[C@H](CC(C)C)NC(=O)[C@@H](NC(=O)[C@H](CCC(N)=O)NC(=O)[C@H](CO)NC(=O)[C@H](CO)NC(=O)[C@H](CCC(=O)O)NC(=O)[C@H](CC(C)C)NC(=O)[C@@H](N)CCCCN)[C@@H](C)CC)[C@@H](C)CC)C(C)C)[C@@H](C)O)C(=O)O | F fusion protein | cell-cell fusion, inhibitor, luciferase reporter | Vero plus BSR-T7 cells | 6 h, 37 °C, with: SV5 F and HN | 271 ± 24 nM
C=CCCC[C@H](NC(=O)[C@H](CCCNC(=N)N)NC(=O)[C@@H](NC(=O)[C@@H](NC(=O)[C@H](CCCC=C)NC(=O)[C@H](CCC(=O)O)NC(C)=O)[C@@H](C)CC)[C@@H](C)CC)C(=O)N[C@@H](CC(C)C)C(=O)N[C@@H](CCC(N)=O)C(=O)N[C@@H](CCC(N)=O)C(=O)N[C@@H](CC(C)C)C(=O)N[C@@H](CC(C)C)C(=O)N[C@@H](Cc1ccccc1)C(=O)N[C@H](C(=O)N[C@@H](Cc1c[nH]cn1)C(=O)N[C@@H](Cc1ccccc1)C(=O)N[C@@H](CCCNC(=N)N)C(=O)N[C@H](C(=O)NCC(N)=O)[C@@H](C)CC)[C@@H](C)CC | gag-pol integrase | strand transfer, inhibitor | HIV-1 |  | 1700 ± 300 nM

Repeated from above:
SMILES | target | assay | test system | setting | IC50
CC[C@H](C)[C@H](NC(=O)[C@H](C)NC(=O)[C@H](CO)NC(=O)[C@H](CC(C)C)NC(=O)[C@H](Cc1ccc(O)cc1)NC(=O)[C@@H](NC(=O)[C@H](CC(=O)O)NC(=O)[C@H](CO)NC(=O)[C@H](CCC(N)=O)NC(=O)[C@H](C)NC(=O)[C@H](CC(C)C)NC(=O)[C@H](Cc1c[nH]cn1)NC(=O)[C@H](CCC(N)=O)NC(=O)[C@H](CC(C)C)NC(=O)[C@H](C)NC(=O)[C@H](CC(=O)O)NC(=O)[C@H](CO)NC(=O)[C@H](CC(C)C)NC(=O)[C@H](CO)NC(=O)[C@H](CCCCN)NC(=O)[C@H](CC(N)=O)NC(=O)[C@@H](NC(=O)[C@H](C)NC(=O)[C@H](C)NC(=O)[C@H](CC(C)C)NC(=O)[C@H](CC(N)=O)NC(=O)[C@H](CCC(N)=O)NC(=O)[C@H](CO)NC(=O)[C@H](C)NC(=O)[C@H](CC(=O)O)NC(=O)[C@H](CC(C)C)NC(=O)[C@@H]1CCCN1C(=O)[C@H](CC(=O)O)NC(=O)[C@@H](NC(=O)[C@H](CO)NC(=O)[C@H](CC(C)C)NC(=O)[C@@H](NC(=O)[C@H](CCC(N)=O)NC(=O)[C@H](CO)NC(=O)[C@H](CO)NC(=O)[C@H](CCC(=O)O)NC(=O)[C@H](CC(C)C)NC(=O)[C@@H](N)CCCCN)[C@@H](C)CC)[C@@H](C)CC)C(C)C)[C@@H](C)O)C(=O)O | F fusion protein | cell-cell fusion, inhibitor, luciferase reporter | Vero plus BSR-T7 cells | 6 h, 37 °C, with: SV5 F and HN | 115 ± 7 nM
